# Measurements of several laboratories.
# A part holds a random share of what one study measured. “And” joins repeats or separate records; there may be more than shown.
# UniProt Q14289, sequence (whole entry, looked up): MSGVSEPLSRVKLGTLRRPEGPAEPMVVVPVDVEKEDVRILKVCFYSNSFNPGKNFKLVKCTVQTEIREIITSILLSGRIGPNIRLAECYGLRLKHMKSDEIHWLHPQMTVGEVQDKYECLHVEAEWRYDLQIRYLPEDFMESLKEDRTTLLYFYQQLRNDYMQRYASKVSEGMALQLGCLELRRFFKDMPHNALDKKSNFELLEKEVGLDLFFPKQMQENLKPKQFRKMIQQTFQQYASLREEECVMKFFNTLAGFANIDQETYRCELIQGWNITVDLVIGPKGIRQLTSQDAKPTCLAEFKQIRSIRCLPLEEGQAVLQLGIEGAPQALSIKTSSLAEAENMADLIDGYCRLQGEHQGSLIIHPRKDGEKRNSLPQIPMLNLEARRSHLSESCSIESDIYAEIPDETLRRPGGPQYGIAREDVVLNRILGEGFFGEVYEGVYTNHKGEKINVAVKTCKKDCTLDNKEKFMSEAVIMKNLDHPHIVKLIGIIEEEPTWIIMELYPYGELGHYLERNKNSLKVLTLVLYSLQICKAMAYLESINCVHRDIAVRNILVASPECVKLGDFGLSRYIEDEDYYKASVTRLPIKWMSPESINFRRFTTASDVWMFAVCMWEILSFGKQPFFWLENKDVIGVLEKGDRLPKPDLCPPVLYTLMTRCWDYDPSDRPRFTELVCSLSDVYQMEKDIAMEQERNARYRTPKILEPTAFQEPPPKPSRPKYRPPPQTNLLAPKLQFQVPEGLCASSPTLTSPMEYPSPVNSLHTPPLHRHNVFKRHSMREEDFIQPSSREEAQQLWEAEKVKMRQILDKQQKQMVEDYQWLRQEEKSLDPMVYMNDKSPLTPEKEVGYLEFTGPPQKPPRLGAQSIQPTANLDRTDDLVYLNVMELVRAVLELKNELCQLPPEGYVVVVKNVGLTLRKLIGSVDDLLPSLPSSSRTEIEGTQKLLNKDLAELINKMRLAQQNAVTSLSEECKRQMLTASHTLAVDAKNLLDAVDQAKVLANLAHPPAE
# UniProt O00506, sequence (whole entry, looked up): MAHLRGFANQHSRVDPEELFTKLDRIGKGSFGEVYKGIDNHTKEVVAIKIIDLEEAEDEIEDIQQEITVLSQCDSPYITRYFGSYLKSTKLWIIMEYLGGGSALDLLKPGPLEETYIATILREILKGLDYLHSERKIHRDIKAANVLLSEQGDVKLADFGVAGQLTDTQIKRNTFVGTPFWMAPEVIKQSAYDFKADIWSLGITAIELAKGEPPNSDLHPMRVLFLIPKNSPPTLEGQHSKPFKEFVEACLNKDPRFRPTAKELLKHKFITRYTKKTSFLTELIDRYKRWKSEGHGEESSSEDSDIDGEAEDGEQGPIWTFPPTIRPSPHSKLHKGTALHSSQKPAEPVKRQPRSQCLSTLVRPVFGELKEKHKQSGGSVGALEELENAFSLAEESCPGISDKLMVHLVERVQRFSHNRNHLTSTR
# UniProt Q86Z02, sequence (whole entry, looked up): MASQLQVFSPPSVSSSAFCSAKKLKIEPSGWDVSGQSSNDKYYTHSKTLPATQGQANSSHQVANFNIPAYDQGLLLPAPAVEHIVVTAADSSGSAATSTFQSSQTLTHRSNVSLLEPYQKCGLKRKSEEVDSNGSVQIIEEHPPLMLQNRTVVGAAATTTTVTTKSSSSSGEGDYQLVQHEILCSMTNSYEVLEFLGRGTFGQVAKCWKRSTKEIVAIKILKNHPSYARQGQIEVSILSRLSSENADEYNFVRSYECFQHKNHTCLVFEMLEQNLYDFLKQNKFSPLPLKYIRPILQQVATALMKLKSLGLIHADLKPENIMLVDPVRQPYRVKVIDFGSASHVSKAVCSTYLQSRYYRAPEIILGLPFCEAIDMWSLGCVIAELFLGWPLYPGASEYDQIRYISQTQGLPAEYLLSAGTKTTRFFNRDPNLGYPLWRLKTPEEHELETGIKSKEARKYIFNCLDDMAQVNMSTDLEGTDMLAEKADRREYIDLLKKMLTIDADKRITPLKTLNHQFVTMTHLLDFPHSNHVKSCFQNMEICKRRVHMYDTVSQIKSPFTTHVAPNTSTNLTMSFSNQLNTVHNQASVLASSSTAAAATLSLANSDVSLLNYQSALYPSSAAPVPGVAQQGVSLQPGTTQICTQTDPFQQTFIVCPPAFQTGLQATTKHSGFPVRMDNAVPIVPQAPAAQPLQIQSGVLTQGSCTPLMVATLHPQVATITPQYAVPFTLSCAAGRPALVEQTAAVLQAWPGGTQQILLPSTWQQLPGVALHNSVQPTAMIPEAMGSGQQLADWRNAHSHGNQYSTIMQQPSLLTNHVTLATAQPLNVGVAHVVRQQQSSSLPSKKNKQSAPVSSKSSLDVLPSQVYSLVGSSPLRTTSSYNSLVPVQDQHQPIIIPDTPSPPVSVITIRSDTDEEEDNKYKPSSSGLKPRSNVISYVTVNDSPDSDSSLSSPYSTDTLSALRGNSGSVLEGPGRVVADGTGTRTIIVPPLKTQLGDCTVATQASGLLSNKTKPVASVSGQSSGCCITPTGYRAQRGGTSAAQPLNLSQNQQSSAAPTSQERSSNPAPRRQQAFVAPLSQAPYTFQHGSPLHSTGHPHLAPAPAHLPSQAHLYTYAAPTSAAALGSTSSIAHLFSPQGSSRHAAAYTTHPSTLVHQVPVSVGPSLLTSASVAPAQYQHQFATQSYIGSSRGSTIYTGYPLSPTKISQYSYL
# UniProt P10721, sequence (whole entry, unmodified, looked up): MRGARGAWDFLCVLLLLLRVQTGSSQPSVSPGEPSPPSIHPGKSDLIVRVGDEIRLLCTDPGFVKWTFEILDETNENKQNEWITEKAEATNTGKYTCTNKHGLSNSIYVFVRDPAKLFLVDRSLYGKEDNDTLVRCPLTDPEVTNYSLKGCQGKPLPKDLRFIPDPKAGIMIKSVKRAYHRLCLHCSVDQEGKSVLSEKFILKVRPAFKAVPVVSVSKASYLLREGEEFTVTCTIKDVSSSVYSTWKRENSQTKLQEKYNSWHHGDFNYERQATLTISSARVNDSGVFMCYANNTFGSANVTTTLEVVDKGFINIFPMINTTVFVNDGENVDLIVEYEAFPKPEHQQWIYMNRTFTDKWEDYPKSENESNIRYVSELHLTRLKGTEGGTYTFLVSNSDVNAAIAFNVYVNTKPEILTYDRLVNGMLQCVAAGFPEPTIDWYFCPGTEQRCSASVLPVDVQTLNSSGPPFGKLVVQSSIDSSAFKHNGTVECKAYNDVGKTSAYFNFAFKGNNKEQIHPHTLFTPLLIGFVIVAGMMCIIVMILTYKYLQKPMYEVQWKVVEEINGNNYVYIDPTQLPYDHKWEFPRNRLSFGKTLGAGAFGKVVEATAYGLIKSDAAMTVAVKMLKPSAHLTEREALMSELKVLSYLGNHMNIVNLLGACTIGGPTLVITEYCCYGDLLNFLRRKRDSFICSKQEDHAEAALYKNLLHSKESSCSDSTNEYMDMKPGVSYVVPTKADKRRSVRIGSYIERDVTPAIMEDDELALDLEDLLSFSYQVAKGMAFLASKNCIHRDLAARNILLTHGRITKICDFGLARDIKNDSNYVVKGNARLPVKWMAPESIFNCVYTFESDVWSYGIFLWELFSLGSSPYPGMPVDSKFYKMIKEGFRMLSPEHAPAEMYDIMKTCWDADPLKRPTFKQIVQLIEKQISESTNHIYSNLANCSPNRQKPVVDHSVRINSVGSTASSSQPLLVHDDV
# UniProt P52564, sequence (whole entry, looked up): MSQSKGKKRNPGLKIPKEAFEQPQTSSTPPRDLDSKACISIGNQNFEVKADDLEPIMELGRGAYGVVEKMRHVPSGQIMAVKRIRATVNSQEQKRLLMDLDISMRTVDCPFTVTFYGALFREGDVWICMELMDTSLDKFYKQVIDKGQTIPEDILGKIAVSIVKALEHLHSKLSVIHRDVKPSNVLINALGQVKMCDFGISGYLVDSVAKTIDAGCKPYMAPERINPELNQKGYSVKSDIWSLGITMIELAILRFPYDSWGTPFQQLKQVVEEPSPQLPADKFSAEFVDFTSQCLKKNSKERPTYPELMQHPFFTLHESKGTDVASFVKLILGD
# UniProt Q00526, sequence (whole entry, looked up): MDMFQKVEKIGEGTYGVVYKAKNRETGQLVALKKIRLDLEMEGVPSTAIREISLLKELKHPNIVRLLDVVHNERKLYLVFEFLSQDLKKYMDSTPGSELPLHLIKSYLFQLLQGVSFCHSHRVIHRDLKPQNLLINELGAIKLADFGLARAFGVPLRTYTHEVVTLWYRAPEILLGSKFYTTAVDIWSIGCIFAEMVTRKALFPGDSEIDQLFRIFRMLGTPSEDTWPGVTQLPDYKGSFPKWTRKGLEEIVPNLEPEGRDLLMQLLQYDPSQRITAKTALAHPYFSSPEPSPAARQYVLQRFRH
# UniProt Q9UBE8, sequence (whole entry, looked up): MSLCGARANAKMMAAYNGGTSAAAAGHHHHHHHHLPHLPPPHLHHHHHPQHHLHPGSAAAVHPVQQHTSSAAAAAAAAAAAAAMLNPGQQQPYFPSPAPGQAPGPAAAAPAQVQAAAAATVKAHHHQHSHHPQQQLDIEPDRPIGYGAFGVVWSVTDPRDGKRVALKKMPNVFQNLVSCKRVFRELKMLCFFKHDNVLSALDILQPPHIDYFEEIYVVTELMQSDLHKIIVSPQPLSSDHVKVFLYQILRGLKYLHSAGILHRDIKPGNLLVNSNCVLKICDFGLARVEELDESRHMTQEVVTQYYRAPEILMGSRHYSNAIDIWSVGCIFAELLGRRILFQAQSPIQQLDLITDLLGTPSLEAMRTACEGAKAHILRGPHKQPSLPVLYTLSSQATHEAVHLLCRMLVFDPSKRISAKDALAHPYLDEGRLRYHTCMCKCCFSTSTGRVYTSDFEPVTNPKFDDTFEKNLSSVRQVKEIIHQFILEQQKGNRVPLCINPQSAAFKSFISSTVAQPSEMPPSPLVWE

# Study 1
# Compound: C=CC(=O)N1CCC[C@@H](n2nc(-c3ccc(Oc4ccccc4)cc3)c3c(N)ncnc32)C1
# Mode: inhibitor
# Concentration: 1 µM
target,assay,inhibition [%]
"TEC (Homo sapiens, UniProt P42680)",enzyme activity,76
"EPHB2 (Homo sapiens, UniProt P29323)",enzyme activity,12
"MAP2K6 (Homo sapiens, UniProt P52564)",enzyme activity,0
"PNCK (Homo sapiens, UniProt Q6P2M8)",,15
"DDR2 (Homo sapiens, UniProt Q16832)",,3
"EPHB1 (Homo sapiens, UniProt P54762)",enzyme activity,4
"STK36 (Homo sapiens, UniProt Q9NRP7)",enzyme activity,37
"Ribosomal protein S6 kinase alpha-6, N-terminal kinase domain (RPS6KA6, Homo sapiens, UniProt Q9UK32)",,7
"PIP5K1C (Homo sapiens, UniProt O60331)",,0
"MYLK2 (Homo sapiens, UniProt Q9H1R3)",enzyme activity,0
"Tyrosine-protein kinase ABL1, phosphorylated (ABL1, Homo sapiens, UniProt P00519, T315I)",,3
"RET (Homo sapiens, UniProt P07949, V804L)",enzyme activity,18
"KIT (Homo sapiens, UniProt P10721, D816V)",,8

# Study 2
# SMILES: C[C@@H]1[C@H](O)[C@@H](C)/C=C/C=C/C=C/C=C/C=C/C=C/C=C/[C@H](O[C@@H]2O[C@H](C)[C@@H](O)[C@H](N)[C@@H]2O)C[C@@H]2O[C@](O)(C[C@@H](O)C[C@@H](O)[C@H](O)CC[C@@H](O)C[C@@H](O)CC(=O)O[C@H]1C)C[C@H](O)[C@H]2C(=O)O
# Organism: Leishmania donovani
# Strain: DD8
# Medium: promastigotes
conditions,promastigote number
"6660 µM, 72 h",1260 and 1570
"66660 µM, 72 h",1350 and 1680
"60 µM, 48 h",2.07e+06 and 2.1e+06
"1660 µM, 24 h",169000
"30 µM, 72 h",9.76e+06 and 9.65e+06
"3330 µM, 72 h",1550 and 1250
"33330 µM, 48 h",1550 and 1250
"660 µM, 24 h",524000 and 522000
"660 µM, 72 h",58400 and 98500

# Study 3
# Structure (SMILES): COc1ccc(-c2c(Nc3ccccn3)[nH]c3c(C4=CCCCC4)c(-c4ccccc4)nn3c2=O)cc1
# Species: cancer patients
# Medium: plasma
# Route: oral
# Time: cycle 1 day 15
# Setting: multiple dosing
conditions,"effective half-life, geometric mean [days]"
400 mg once daily,1.32
100 mg once daily,1.78
50 mg once daily,2.91
150 mg once daily,2.46
200 mg once daily,2.93

# Study 4
# SMILES: O=C(Nc1ccc(Cl)cc1)c1ccccc1NCc1ccncc1
# Observed: enzyme activity
# Mode: inhibitor
# Concentration: 0.5 µM
# Reference: control
target,remaining activity [%]
"LIM domain kinase 1 (LIMK1, Homo sapiens, UniProt P53667)",83.4
"ITK (Homo sapiens, UniProt Q08881)",94.1
"MATK (Homo sapiens, UniProt P42679)",99.3
"PKN1 (Homo sapiens, UniProt Q16512)",95.2
"FGR (Homo sapiens, UniProt P09769)",83.8
"AKT1 (Homo sapiens, UniProt P31749)",97.6
"TAOK3 (Homo sapiens, UniProt Q9H2K8)",94.1
"PASK (Homo sapiens, UniProt Q96RG2)",97.1
"HIPK1 (Homo sapiens, UniProt Q86Z02)",92.7
"FYN (Homo sapiens, UniProt P06241)",97
"SRC (Homo sapiens, UniProt P12931)",88.8
"FLT4 (Homo sapiens, UniProt P35916)",44.8
"NLK (Homo sapiens, UniProt Q9UBE8)",87.2
"Insulin receptor (INSR, Homo sapiens, UniProt P06213)",88
"CDC42BPA (Homo sapiens, UniProt Q5VT25)",90.5
"ALK (Homo sapiens, UniProt Q9UM73)",103
"STK25 (Homo sapiens, UniProt O00506)",91.6
"NEK11 (Homo sapiens, UniProt Q8NG66)",104
"PRKX (Homo sapiens, UniProt P51817)",90.5
"FER (Homo sapiens, UniProt P16591)",80.4
"Cyclin-dependent kinase 3, with cyclin E (CDK3, Homo sapiens, UniProt Q00526)",87.4
"MARK3 (Homo sapiens, UniProt P27448)",93.1

# Single results of other studies
Compound,tested on,assay,system,conditions,quantity,value
CN(c1ccnc(CNc2nc(Nc3ccc4c(c3)CC(=O)N4)ncc2C(F)(F)F)n1)S(C)(=O)=O,"PTK2B (Homo sapiens, UniProt Q14289)","target engagement, NanoBRET",live cells,,EC50,24.8 µM and 53.7 µM and 31.7 µM
CC(=O)Oc1c(C)c(C)c2c(c1C)CCC(C)(CCC[C@H](C)CCC[C@H](C)CCCC(C)C)O2 (stereo partly drawn),A-375,,,"100 µM, 60 h",viability,106%

# For quick reference, copied from above (study 1):
target,assay,inhibition [%]
"MAP2K6 (Homo sapiens, UniProt P52564)",enzyme activity,0
"DDR2 (Homo sapiens, UniProt Q16832)",,3
"Ribosomal protein S6 kinase alpha-6, N-terminal kinase domain (RPS6KA6, Homo sapiens, UniProt Q9UK32)",,7
"EPHB1 (Homo sapiens, UniProt P54762)",enzyme activity,4
"MYLK2 (Homo sapiens, UniProt Q9H1R3)",enzyme activity,0
"STK36 (Homo sapiens, UniProt Q9NRP7)",enzyme activity,37
"Tyrosine-protein kinase ABL1, phosphorylated (ABL1, Homo sapiens, UniProt P00519, T315I)",,3
